{"data": "Published values from different studies", "target": "Protein deacetylase HDAC6 (HDAC6, Homo sapiens, UniProt Q9UBN7)", "action": "inhibitor", "Residues used in one study (Q9UBN7 1-1215)": "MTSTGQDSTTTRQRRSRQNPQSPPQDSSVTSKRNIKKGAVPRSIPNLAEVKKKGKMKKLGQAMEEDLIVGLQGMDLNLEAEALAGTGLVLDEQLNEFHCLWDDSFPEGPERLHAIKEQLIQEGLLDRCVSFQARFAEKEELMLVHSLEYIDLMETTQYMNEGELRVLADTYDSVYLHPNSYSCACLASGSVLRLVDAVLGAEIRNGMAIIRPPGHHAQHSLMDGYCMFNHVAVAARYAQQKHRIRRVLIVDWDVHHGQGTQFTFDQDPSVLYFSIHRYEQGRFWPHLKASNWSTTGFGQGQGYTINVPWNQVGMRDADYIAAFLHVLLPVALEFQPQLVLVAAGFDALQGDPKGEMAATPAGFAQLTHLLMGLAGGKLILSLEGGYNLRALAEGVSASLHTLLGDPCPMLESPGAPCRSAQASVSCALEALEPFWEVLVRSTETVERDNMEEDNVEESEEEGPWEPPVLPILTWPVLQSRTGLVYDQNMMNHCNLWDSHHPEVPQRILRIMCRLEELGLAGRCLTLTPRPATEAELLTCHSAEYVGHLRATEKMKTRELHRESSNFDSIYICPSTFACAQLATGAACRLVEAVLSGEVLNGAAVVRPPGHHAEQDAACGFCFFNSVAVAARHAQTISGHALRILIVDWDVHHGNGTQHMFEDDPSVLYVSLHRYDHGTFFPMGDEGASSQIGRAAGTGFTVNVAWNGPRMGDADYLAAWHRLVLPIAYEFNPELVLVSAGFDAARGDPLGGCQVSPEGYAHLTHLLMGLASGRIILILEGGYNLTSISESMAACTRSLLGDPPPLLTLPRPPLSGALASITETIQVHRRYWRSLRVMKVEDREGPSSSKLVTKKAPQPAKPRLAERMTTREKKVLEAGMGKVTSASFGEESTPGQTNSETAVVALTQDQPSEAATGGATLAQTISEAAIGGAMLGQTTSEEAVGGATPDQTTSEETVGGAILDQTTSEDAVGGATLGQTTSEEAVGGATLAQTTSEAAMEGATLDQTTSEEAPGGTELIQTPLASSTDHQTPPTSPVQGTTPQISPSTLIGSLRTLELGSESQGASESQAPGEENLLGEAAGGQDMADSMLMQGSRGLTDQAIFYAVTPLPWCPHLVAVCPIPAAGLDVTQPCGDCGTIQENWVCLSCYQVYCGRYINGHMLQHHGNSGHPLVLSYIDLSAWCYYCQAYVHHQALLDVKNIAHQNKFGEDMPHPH", "note": "Each line is one published result; not all experiments were run side by side. pIC50: −log10 of the molar value."}
{"read-out": "enzyme activity", "pIC50": 4.95, "SMILES": "O=c1c2ccccc2sn1Cc1ccccc1"}
{"read-out": "enzyme activity", "technique": "fluorescence", "pIC50": 6.15, "SMILES": "O=C(/C=C/c1ccc(Cl)cc1Cl)NO"}
{"read-out": "enzyme activity", "pIC50": "< 5.00", "SMILES": "O=C(O)c1ccc(Cn2sc3ccccc3c2=O)cc1"}
{"read-out": "enzyme activity", "pIC50": 6.10, "SMILES": "N/C(=N\\O)c1ccc2c(c1)Oc1ccccc1N2Cc1cccc(C(=O)NO)c1"}
{"read-out": "deacetylase activity", "technique": "recombinant enzyme", "pIC50": "< 4.52", "SMILES": "Cc1ncc2c(n1)CN(C(=O)Nc1nc(-c3cccs3)ccc1N)C2"}
{"read-out": "enzyme activity", "technique": "fluorescence", "pIC50": 6.15, "SMILES": "COc1ccc(NS(=O)(=O)c2cccc(/C=C/C(=O)NO)c2)cc1"}
{"read-out": "enzyme activity", "technique": "fluorescence", "pIC50": 9.52, "SMILES": "O=C(CCCCCCC(=O)Nc1ccccc1-[c-]1cccc1)NO.[Fe+2].c1cc[cH-]c1"}
{"read-out": "enzyme activity", "technique": "fluorescence", "pIC50": "< 4.00", "SMILES": "Cc1cc(C)nc(SC(C)C(=O)Nc2ncc(Cc3cccc4ccccc34)s2)n1 (stereo not drawn)"}
{"read-out": "enzyme activity", "technique": "fluorescence", "pIC50": 7.25, "SMILES": "CC(CCC(=O)NCC(=O)NCc1ccc(C(=O)NO)cc1)C1CCC2C3C(O)CC4CC(O)CCC4(C)C3CCC12C (stereo not drawn)"}
{"read-out": "enzyme activity", "technique": "fluorescence", "pIC50": "< 4.00", "SMILES": "Cc1cc(C)nc(SCC(=O)Nc2ncc(Cc3cccc(OCc4cn(-c5ccc(Cl)cc5)nn4)c3)s2)n1"}
{"read-out": "enzyme activity", "technique": "fluorescence", "pIC50": 7.02, "SMILES": "O=C(/C=C/c1ccc(CNC(=O)Cc2ccccc2)cc1)NO"}
{"read-out": "deacetylase activity", "technique": "recombinant enzyme", "pIC50": "< 4.52", "SMILES": "Cn1cc2c(n1)CN(C(=O)Nc1nc(-c3ccc(F)cc3)ccc1N)C2"}
{"read-out": "enzyme activity", "pIC50": 6.74, "SMILES": "O=C(C=Cc1ccc2c(c1)C(=O)N(Cc1ccccc1)CC2)NO"}
{"read-out": "enzyme activity", "technique": "fluorescence", "pIC50": 5.85, "SMILES": "O=C(CCCC(=O)Nc1ccc(-[c-]2cccc2)cc1)NO.[Fe+2].c1cc[cH-]c1"}
{"read-out": "enzyme activity", "pIC50": "< 5.00", "SMILES": "CCC(=O)CCCCC[C@@H]1NC(=O)[C@@H](C)n2nncc2[C@@H](CC(C)C)NC(=O)[C@H](Cc2c[nH]c3ccccc23)NC1=O"}
{"read-out": "enzyme activity", "technique": "fluorescence", "pIC50": 7.09, "SMILES": "CC(CCC(=O)NCCCCCC(=O)NO)C1CCC2C3C(O)CC4CC(O)CCC4(C)C3CCC12C (stereo not drawn)"}
{"read-out": "enzyme activity", "pIC50": 8.49, "SMILES": "O=C(NO)c1ccc(Cn2sc3ccccc3c2=O)cc1"}
{"read-out": "enzyme activity", "technique": "fluorescence", "pIC50": 6.65, "SMILES": "O=C(/C=C/c1ccc2ccccc2c1)NO"}
{"read-out": "enzyme activity", "pIC50": "< 5.00", "SMILES": "COC(=O)c1ccc(Cn2sc3ccccc3c2=O)cc1"}
{"read-out": "enzyme activity", "pIC50": 8.52, "SMILES": "N/C(=N\\O)c1ccc2c(c1)Oc1ccccc1N2Cc1ccc(C(=O)NO)cc1"}
{"read-out": "enzyme activity", "technique": "fluorescence", "pIC50": "< 4.00", "SMILES": "COCCn1cc(COc2cccc(Cc3cnc(NC(=O)CSc4nc(C)cc(C)n4)s3)c2)nn1"}
